{"data": "Published values collected from several papers", "Taar1": "Trace amine-associated receptor 1 (Taar1, Mus musculus, UniProt Q923Y8)", "GLP1R": "Glucagon-like peptide 1 receptor (GLP1R, Homo sapiens, UniProt P43220)", "GRM4": "Metabotropic glutamate receptor 4 (GRM4, Homo sapiens, UniProt Q14833)", "Lysophospholipase-like protein 1": "Lysophospholipase-like protein 1 (Mus musculus, UniProt Q3UFF7)", "KCNT1": "Potassium channel subfamily T member 1 (KCNT1, Homo sapiens, UniProt Q5JUK3)", "note": "Compare with care: the assays were run in different laboratories. Several values in a cell are separate wells, animals, samples, runs or records. Numbers after ± are the reported error."}
{"SMILES": "NCC(c1ccc(O)cc1)c1ccc(Oc2ccc(O)cc2)c(I)c1 (centres unmarked)", "target or system": "Taar1", "test": "cAMP production, agonist", "test system": "HEK293", "EC50": "> 10000 nM"}
{"SMILES": "Cc1[nH]c2cc(Cl)cc(Cl)c2c1CCn1cc(CNC(N)=O)nn1", "target or system": "GLP1R", "test": "cAMP accumulation, positive allosteric modulator, HTRF", "test system": "CHO-K1 expressing GLP1R", "setting": "crude reaction product, added: GLP-1(9-36) at EC20", "EC50": "760 nM"}
{"SMILES": "Cc1c(=O)n(C)c(Nc2ccc(I)cc2F)c2c(=O)n(C3CC3)c(=O)n(-c3cccc(NC(=O)CCOCCOCCNC(=O)CCC4=[N+]5C(=Cc6ccc(-c7ccc[nH]7)n6[B-]5(F)F)C=C4)c3)c12", "target or system": "Dual specificity mitogen-activated protein kinase kinase 1, with KSR2 (MAP2K1, Homo sapiens, UniProt Q02750)", "test": "binding, NanoBRET", "test system": "HEK-293T", "setting": "MEK1-NanoLuc with KSR2", "EC50": "35.2 ± 3.5 nM"}
{"SMILES": "O=C(Nc1ccc(F)cc1)C12CC1/C(=N\\O)c1cc(Cl)ccc1O2 (centres unmarked)", "target or system": "GRM4", "test": "calcium mobilization, positive allosteric modulator", "test system": "CHO hmGluR4/Gqi5", "setting": "added: glutamate EC20", "EC50": "3400 nM and ~3000 nM"}
{"SMILES": "Nc1nc(NCCc2ccc(Cl)cc2)nn1S(=O)(=O)c1cccc2ccccc12", "target or system": "Lysophospholipase-like protein 1", "test": "enzyme activity, activator, gel-based ABPP, FP-rhodamine", "test system": "purified protein", "EC50": "2100 nM"}
{"SMILES": "NS(=O)(=O)c1ccc(Cc2c(-c3ccc(F)c(/C=C/C4CCCC4)c3)nn(-c3nc(C(=O)O)cs3)c2CC2CC2)cc1F", "target or system": "LDHA (Homo sapiens, UniProt P00338)", "test": "thermal stabilisation, CETSA", "test system": "HEK293", "setting": "3.5 min, 71 °C", "EC50": "20 nM"}
{"SMILES": "NCCCCNC(=O)[C@H](Cc1ccccc1)NC(=O)N1CCc2ccccc2C1", "target or system": "Melanocortin receptor 5 (Mus musculus, UniProt P41149)", "test": "reporter gene, agonist, β-galactosidase reporter", "test system": "HEK293 stably expressing Melanocortin receptor 5", "EC50": "22000 ± 4100 nM"}
{"SMILES": "COc1cc(Nc2ncc3c(n2)-c2ccc(Cl)cc2C(c2c(F)cccc2OC)=NC3)ccc1C(=O)NCCOCCOCCOCCOCC(=O)N[C@H](C(=O)N1C[C@H](O)C[C@H]1C(=O)NCc1ccc(-c2scnc2C)cc1)C(C)(C)C", "target or system": "Aurora kinase B (AURKB, Homo sapiens, UniProt Q96GD4)", "test": "target engagement, NanoBRET", "test system": "HEK293", "setting": "2 h", "EC50": "2660 ± 247 nM"}
{"SMILES": "Nc1nc(SCc2ccc(Cl)cc2)nn1S(=O)(=O)c1ccc2[nH]c(=O)[nH]c2c1", "target or system": "Lysophospholipase-like protein 1", "test": "enzyme activity, activator, gel-based ABPP, FP-rhodamine", "test system": "purified protein", "EC50": "740 nM"}
{"SMILES": "Nc1ccc([N+](=O)[O-])cc1-c1nc2ccccc2[nH]c1=O", "target or system": "CFTR (Homo sapiens, UniProt P13569)", "test": "iodide influx, activator, YFP halide sensor", "test system": "FRT", "setting": "approximate, added: forskolin 125 nM", "EC50": "> 25000 nM"}
{"SMILES": "COc1ccc(NC(=O)CN2CCCN(S(=O)(=O)c3ccccc3F)CC2)c(OC)c1", "target or system": "GRM4", "test": "calcium mobilization, positive allosteric modulator", "test system": "CHO cells with Gqi5", "setting": "added: glutamate EC20", "EC50": "3500 ± 500 nM"}
{"SMILES": "NCC(c1ccc(O)cc1)c1ccc(Oc2ccccc2)cc1 (centres unmarked)", "target or system": "Taar1 (Mus musculus, UniProt Q923Y8, T268M)", "test": "cAMP, agonist", "setting": "mouse receptor mutant", "EC50": "> 10000 nM"}
{"SMILES": "NCCCCNC(=O)[C@H](Cc1ccc(I)cc1)NC(=O)N1CCc2ccccc2C1", "target or system": "Melanocortin receptor 3 (Mus musculus, UniProt P33033)", "test": "reporter gene, agonist, β-galactosidase reporter", "test system": "HEK293 stably expressing Melanocortin receptor 3", "EC50": "37000 ± 19000 nM"}
{"SMILES": "CC(=O)NCc1cn(CCc2c(C)[nH]c3cc(Cl)cc(Cl)c23)nn1", "target or system": "GLP1R", "test": "cAMP accumulation, positive allosteric modulator, HTRF", "test system": "CHO-K1 expressing GLP1R", "setting": "crude reaction product, added: GLP-1(9-36) at EC20", "EC50": "825 nM"}
{"SMILES": "COc1cc([C@@H]2c3cc4c(cc3C=C(C=O)[C@H]2C(=O)OCCCn2cnc3c(Cl)ncnc32)OCO4)cc(OC)c1OC", "target or system": "Leishmania infantum", "test system": "promastigote, iRFP", "EC50": "> 100000 nM"}
{"SMILES": "[2H]C([2H])(C)N(C(=O)C1CCN(S(=O)(=O)c2ccc3[nH]ncc3c2)CC1)[C@@H]1CCc2ccccc21", "target or system": "CHRM5 (Homo sapiens, UniProt P08912)", "test": "positive allosteric modulator, calcium mobilization", "test system": "CHO cells expressing human M5", "setting": "added: acetylcholine EC20", "EC50": "456 nM"}
{"SMILES": "COc1cccc(Cc2cc(C)nn(C(C(=O)Nc3ccc(Br)cc3)C(C)C)c2=O)c1 (racemic)", "target or system": "FPR2 (Homo sapiens, UniProt P25090)", "test": "calcium mobilization, agonist", "test system": "HL-60 transfected with FPR2", "EC50": "6500 nM"}
{"SMILES": "Oc1c(Cl)cccc1CNc1nc2ccccc2n1CC1CC1", "target or system": "ALDH1A1 (Homo sapiens, UniProt P00352)", "test": "enzyme activity, inhibitor, NADH absorbance 340 nm", "setting": "pH 7.5, 25 °C, 200 µM NAD+, added: 100 µM propionaldehyde", "EC50": "97 ± 29 nM"}
{"SMILES": "COc1ccc(NC(=O)CN2CCCN(S(=O)(=O)c3cccnc3)CC2)c(OC)c1", "target or system": "GRM4", "test": "calcium mobilization, positive allosteric modulator", "test system": "CHO cells with Gqi5", "setting": "added: glutamate EC20", "EC50": "> 10000 nM"}
{"SMILES": "CC(C)(Cn1cc(-c2ccc(N)nc2)nn1)c1c[nH]c2ccccc12", "target or system": "GLP1R", "test": "cAMP accumulation, positive allosteric modulator, HTRF", "test system": "CHO-K1 expressing GLP1R", "setting": "crude reaction product, added: GLP-1(9-36) at EC20", "EC50": "459 nM"}
{"SMILES": "COc1ccc(NC(=O)CN2CCCN(S(=O)(=O)c3ccc(C)c(Cl)c3)CC2)c(OC)c1", "target or system": "GRM4", "test": "calcium mobilization, positive allosteric modulator", "test system": "CHO cells with Gqi5", "setting": "added: glutamate EC20", "EC50": "3400 ± 200 nM"}
{"SMILES": "CN(Cc1ccccc1)Cc1cn(CC(C)(C)c2c[nH]c3ccccc23)nn1", "target or system": "GLP1R", "test": "cAMP accumulation, positive allosteric modulator, HTRF", "test system": "CHO-K1 expressing GLP1R", "setting": "crude reaction product, added: GLP-1(9-36) at EC20", "EC50": "687 nM"}
{"SMILES": "O=C(CCCCCONC(=O)c1cc2ccccc2[nH]1)NO", "target or system": "HDAC1 (Homo sapiens, UniProt Q13547)", "test": "enzyme activity", "EC50": "1 to 100 nM"}
{"SMILES": "CCS(=O)(=O)c1nc(-c2ccc(F)cc2)cc(C(F)F)n1", "target or system": "GLP1R", "test": "cAMP accumulation, positive allosteric modulator", "test system": "HEK293T overexpressing target", "setting": "added: GLP-1 at EC20", "EC50": "38000 ± 8800 nM"}
{"SMILES": "COc1ccc(NC(=O)CN2CCCN(S(=O)(=O)c3ccc(Cl)c(Cl)c3)CC2)c(OC)c1", "target or system": "GRM4", "test": "calcium mobilization, positive allosteric modulator", "test system": "CHO cells with Gqi5", "setting": "added: glutamate EC20", "EC50": "> 10000 nM"}
{"SMILES": "Nc1nc(NCCc2ccc(Cl)cc2)nn1S(=O)(=O)c1cccc(Cl)c1", "target or system": "Lysophospholipase-like protein 1", "test": "enzyme activity, activator, gel-based ABPP, FP-rhodamine", "test system": "purified protein", "EC50": "> 20000 nM"}
{"SMILES": "O=C(NN=Cc1ccccc1)c1ccc(Cl)cc1", "target or system": "ESRRA (Homo sapiens, UniProt P11474)", "test": "reporter gene, agonist, ERRE luciferase reporter", "test system": "HEK293 transfected", "EC50": "1710 nM"}
{"SMILES": "Cn1cnc(C[C@H](NC(=O)[C@@H]2CCC(=O)N2)C(=O)N2CCC[C@H]2C(N)=O)c1 [isotope labelled]", "target or system": "Thyrotropin-releasing hormone receptor (Mus musculus, UniProt P21761)", "test": "reporter gene, agonist, CREB luciferase reporter", "test system": "HEK293 cells", "setting": "6 h, 37 °C", "EC50": "2.1 nM"}
{"SMILES": "CCOC(=O)c1ccc(-c2c(-c3ccncc3)nnn2CC(=O)Nc2ccc(-c3ccccc3)cn2)cc1", "target or system": "Protein-serine O-palmitoleoyltransferase porcupine (Mus musculus, UniProt Q9JJJ7)", "test": "Wnt signalling reporter, inhibitor", "test system": "L-Wnt-STF", "EC50": "7 nM"}
{"SMILES": "COc1cc([C@@H]2c3cc4c(cc3[C@@H](OC(C)C)[C@H]3COC(=O)[C@H]23)OCO4)cc(OC)c1OC", "target or system": "Leishmania infantum", "test": "iRFP fluorescence", "test system": "mouse splenocytes infected, amastigote, iRFP, ex vivo splenic explant", "setting": "48 h", "EC50": "79100 ± 5300 nM"}
{"SMILES": "Cc1[nH]c2cc(Cl)cc(Cl)c2c1CCn1cc(CN2CCS(=O)(=O)CC2)nn1", "target or system": "GLP1R", "test": "cAMP accumulation, positive allosteric modulator, HTRF", "test system": "CHO-K1 expressing GLP1R", "setting": "crude reaction product, added: GLP-1(9-36) at EC20", "EC50": "498 nM"}
{"SMILES": "O=C(N[C@H]1CCCC[C@@H]1O)[C@@H]1CN(Cc2ccc(-n3cccn3)cc2)c2ccccc2O1", "target or system": "CHRM1 (Homo sapiens, UniProt P11229)", "test": "calcium mobilization, positive allosteric modulator", "test system": "high-expression cell line", "setting": "added: acetylcholine EC20", "EC50": "630 nM"}
{"SMILES": "CC1=CC(C)=[N+]2C1=C(CCCC(=O)NCc1cn(CCOc3ccc(C(c4ccc(Cl)cc4)N4CCN(C(=O)OC(C(F)(F)F)C(F)(F)F)CC4)cc3)nn1)c1c(C)cc(C)n1[B-]2(F)F (centres unmarked)", "target or system": "MGLL (Homo sapiens, UniProt Q99685)", "test": "target engagement, gel-based ABPP", "test system": "U-87 MG", "setting": "1 h, 37 °C", "EC50": "~10 nM"}
{"SMILES": "O=S(=O)(c1cccc(C(F)(F)F)c1)N1CCC(Cn2cnc3ccc(C(F)(F)F)cc32)CC1", "target or system": "KCNT1", "test": "thallium flux, activator", "test system": "HEK293 expressing KCNT1", "EC50": "3000 nM"}
{"SMILES": "Nc1nc(NCCc2ccc(Cl)cc2)nn1S(=O)(=O)c1ccc2c(c1)CCO2", "target or system": "Lysophospholipase-like protein 1", "test": "enzyme activity, activator, gel-based ABPP, FP-rhodamine", "test system": "purified protein", "EC50": "> 20000 nM"}
{"SMILES": "O=C(CCl)Nc1ccc2c(Nc3ccccc3)ncnc2c1", "target or system": "EPHB3 (Homo sapiens, UniProt P54753)", "test": "EPHB3 autophosphorylation, inhibitor, immunoblot", "test system": "HEK293, transfected", "setting": "added: ephrin-B2", "EC50": "170 nM"}
{"SMILES": "Cc1cccc2c1ncn2CC1CCN(S(=O)(=O)c2cccc(C(F)(F)F)c2)CC1", "target or system": "KCNT1", "test": "thallium flux, activator", "test system": "HEK293 expressing KCNT1", "EC50": "1900 nM"}
{"SMILES": "NCC(c1ccccc1)c1ccc(O)cc1 (centres unmarked)", "target or system": "Taar1", "test": "cAMP production, agonist", "test system": "HEK293", "EC50": "> 10000 nM"}
{"note": "Some of these lines once more:"}
{"SMILES": "NCCCCNC(=O)[C@H](Cc1ccccc1)NC(=O)N1CCc2ccccc2C1", "target or system": "Melanocortin receptor 5 (Mus musculus, UniProt P41149)", "test": "reporter gene, agonist, β-galactosidase reporter", "test system": "HEK293 stably expressing Melanocortin receptor 5", "EC50": "22000 ± 4100 nM"}
{"SMILES": "Nc1ccc([N+](=O)[O-])cc1-c1nc2ccccc2[nH]c1=O", "target or system": "CFTR (Homo sapiens, UniProt P13569)", "test": "iodide influx, activator, YFP halide sensor", "test system": "FRT", "setting": "approximate, added: forskolin 125 nM", "EC50": "> 25000 nM"}
